Experimental data from different studies.
Every numbered part comes from another study and shows a few of its results, in no order. Positions count from the first letter of the parent shown.

Block 1
Target: ABI1, truncated, D143A, DHFR fusion (Arabidopsis thaliana)
Technique: DHFR PCA, deep sequencing
Sample: yeast
Setting: methotrexate growth selection, single substitutions
With: (+)-ABA 17 µM
Relative to: wild-type fitted maximum
Reading: higher = stronger binding
Starting sequence: PYL1, truncated, DHFR fusion (Arabidopsis thaliana); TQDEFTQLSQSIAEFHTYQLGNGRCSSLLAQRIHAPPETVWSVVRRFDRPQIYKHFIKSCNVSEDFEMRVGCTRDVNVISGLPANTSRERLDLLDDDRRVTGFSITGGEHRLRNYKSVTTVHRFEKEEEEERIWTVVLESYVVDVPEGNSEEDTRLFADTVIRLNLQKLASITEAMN; partner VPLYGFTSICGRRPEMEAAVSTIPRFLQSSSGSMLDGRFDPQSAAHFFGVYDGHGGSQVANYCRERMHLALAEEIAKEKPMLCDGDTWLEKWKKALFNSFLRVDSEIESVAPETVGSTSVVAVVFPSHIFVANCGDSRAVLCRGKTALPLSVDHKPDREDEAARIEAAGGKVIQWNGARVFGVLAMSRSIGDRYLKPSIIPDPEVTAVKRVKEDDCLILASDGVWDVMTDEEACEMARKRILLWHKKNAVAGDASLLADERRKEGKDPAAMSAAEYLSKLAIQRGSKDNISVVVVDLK
Substitution	relative binding score
E64W	65.3%
I79Q	76.4%
W134E	92.5%
S9C	58.6%
Y115E	3.75%
D96F	0.764%
L94N	3.85%
E151K	86.8%

Block 2
Target: Histone acetyltransferase KAT6A, winged helix 2, GST fusion (KAT6A, Homo sapiens, UniProt Q92794, residues 85-181)
Technique: protein binding microarray
Form: double-stranded DNA, one strand shown
Sample: in vitro
Concentration: not given
Setting: 8-mer, flanks averaged, mean of 2 arrays, mostly near background
Relative to: not given
Reading: higher = stronger binding
Residues (chain): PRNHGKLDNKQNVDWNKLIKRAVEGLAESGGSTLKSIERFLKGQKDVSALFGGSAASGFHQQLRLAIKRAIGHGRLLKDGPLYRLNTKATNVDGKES
Sequence	E-score
GTGTCGGA	-0.00779
CACCTGAA	-0.0725
AGGAACGG	-0.0347
TCAGTAAA	0.0854
ATCTAGTG	-0.104
GCACAATA	-0.079
AACAGCGT	-0.0882
CCTACAGA	-0.0798
AGAATTGA	-0.0318
AGTGCGTA	-0.148
CAAGACTA	-0.237

Block 3
Target: CCND1, cyclin fold, Cln2 fusion (human)
Technique: yeast growth competition, sequencing
Sample: yeast
Setting: strong parent motif
Relative to: not given
Reading: higher = stronger binding
Starting sequence: SCAPER docking peptide (human); SNARRSLNFGGST
Substitution	normalised enrichment score
INARRSLNFGGST [S1I]	-0.129
TNARRSLNFGGST [S1T]	1.09
CNARRSLNFGGST [S1C]	0.919
SNARRSLMFGGST [N8M]	0.579
SNARRSLNFGNST [G11N]	0.766
SNARRSLPFGGST [N8P]	0.256
SNARRSFNFGGST [L7F]	0.0659
SNARRSLNFGGLT [S12L]	1.12
SNARRSLNFGRST [G11R]	-0.217

Single results of other studies
Substance	target	test	test system	setting	how to read	endpoint	value
PhoQ, residues 284 288 289 292 302 303 SLSLLA	PhoP, residues 12 14 15 18 19 YHFSH (Escherichia coli, UniProt P23836)	Sort-seq, measured: YFP reporter	E. coli	PhoQ-PhoP variant library, with: 10 µM Mg2+	relative to: high Mg2+ state, higher = stronger signaling	fold induction	1.62
